Measured values collected from several papers.
A part holds a random share of what one study measured. Positions count from the first letter of the parent shown.

Set 1
Target: Fragile X messenger ribonucleoprotein 1, C-terminal low-complexity region (Fmr1, Mus musculus, UniProt P35922)
Technique: RNA Bind-n-Seq
Form: RNA
Matrix: in vitro
Concentration: 200 nM
Notes: whole 134-nt RNA, ends assumed
With: 150 mM LiCl
Baseline: input library
Direction: higher = stronger binding
All molecules: 7-deaza-guanosine replaces G
| Strand | log2 enrichment |
| --- | --- |
| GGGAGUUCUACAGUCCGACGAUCCCUCAAGUCCUGUGCUACACAUCGUAUGUACCGAAUCGGGGUGGGGUGGUGGAAAGUAUUAUGUUACGCCGUUCGGAUCUGCACUUCCAGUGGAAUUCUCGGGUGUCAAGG | -0.63 |
| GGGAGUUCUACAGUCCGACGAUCACCAUGCAGGUGGGCAUCUUUGGGAAGUGGAAAAAGGGGGGGAUAGGGAGGGGGGUAACACUUUGGGAACAGGUGGUCCCAGGUCGUUUCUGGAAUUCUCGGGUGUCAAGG | 1.37 |
| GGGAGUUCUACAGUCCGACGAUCUGUGAGACUGAAGAUUAUGGAGAAAAGUUUGAUGAAAAUGAUGUGAUUACAUGUUUUGCUGUAAGUUAAAGCUAACUUUCUAUGUAUAAAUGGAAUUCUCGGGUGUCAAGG | -2.03 |
| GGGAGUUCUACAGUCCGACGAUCGUCCUGUGCUACACAUCGUAUGUACCGAAUCGGGGUUUUUGGGUUUUUGGGGUUUUUGGAAAGUAUUAUGUUACGCCGUUCGGAUCUGCAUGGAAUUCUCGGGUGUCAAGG | -0.617 |
| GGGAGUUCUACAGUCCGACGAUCCUGUGCUACACAUCGUAUGUACCGAAUCGGGCCCCCCCGGGCCCCCCCGGGCCCCCCCGGGAAAGUAUUAUGUUACGCCGUUCGGAUCUGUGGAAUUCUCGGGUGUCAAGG | -0.294 |
| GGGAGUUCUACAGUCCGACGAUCGUCCUGUGCUACACAUCGUAUGUACCGAAUCGGCCCCCCGGCCCCCCGGGCCCCCCGGGAAAGUAUUAUGUUACGCCGUUCGGAUCUGCAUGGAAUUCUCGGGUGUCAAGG | 1.21 |
| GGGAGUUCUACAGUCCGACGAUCUGUGCUACACAUCGUAUGUACCGAAUCGGGUUUUUUUGGGGUUUUUUUGGGUUUUUUUGGGGAAAGUAUUAUGUUACGCCGUUCGGAUCUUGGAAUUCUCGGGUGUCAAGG | 1.69 |
| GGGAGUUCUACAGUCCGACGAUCCACAGACAACACGCACCCACACAGACACAGAGGGAAGGGGUUGGGAUGGGGACAGGGUGCACAGCUGGGCGGGGUAGGACCCCAGCCCCUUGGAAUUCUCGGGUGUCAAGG | -0.431 |

Set 2
Target: Sal-like protein 4, full length isoform A (SALL4, Homo sapiens, UniProt Q9UJQ4, residues 1-1053)
Sequence of UniProt Q9UJQ4 (whole entry, looked up): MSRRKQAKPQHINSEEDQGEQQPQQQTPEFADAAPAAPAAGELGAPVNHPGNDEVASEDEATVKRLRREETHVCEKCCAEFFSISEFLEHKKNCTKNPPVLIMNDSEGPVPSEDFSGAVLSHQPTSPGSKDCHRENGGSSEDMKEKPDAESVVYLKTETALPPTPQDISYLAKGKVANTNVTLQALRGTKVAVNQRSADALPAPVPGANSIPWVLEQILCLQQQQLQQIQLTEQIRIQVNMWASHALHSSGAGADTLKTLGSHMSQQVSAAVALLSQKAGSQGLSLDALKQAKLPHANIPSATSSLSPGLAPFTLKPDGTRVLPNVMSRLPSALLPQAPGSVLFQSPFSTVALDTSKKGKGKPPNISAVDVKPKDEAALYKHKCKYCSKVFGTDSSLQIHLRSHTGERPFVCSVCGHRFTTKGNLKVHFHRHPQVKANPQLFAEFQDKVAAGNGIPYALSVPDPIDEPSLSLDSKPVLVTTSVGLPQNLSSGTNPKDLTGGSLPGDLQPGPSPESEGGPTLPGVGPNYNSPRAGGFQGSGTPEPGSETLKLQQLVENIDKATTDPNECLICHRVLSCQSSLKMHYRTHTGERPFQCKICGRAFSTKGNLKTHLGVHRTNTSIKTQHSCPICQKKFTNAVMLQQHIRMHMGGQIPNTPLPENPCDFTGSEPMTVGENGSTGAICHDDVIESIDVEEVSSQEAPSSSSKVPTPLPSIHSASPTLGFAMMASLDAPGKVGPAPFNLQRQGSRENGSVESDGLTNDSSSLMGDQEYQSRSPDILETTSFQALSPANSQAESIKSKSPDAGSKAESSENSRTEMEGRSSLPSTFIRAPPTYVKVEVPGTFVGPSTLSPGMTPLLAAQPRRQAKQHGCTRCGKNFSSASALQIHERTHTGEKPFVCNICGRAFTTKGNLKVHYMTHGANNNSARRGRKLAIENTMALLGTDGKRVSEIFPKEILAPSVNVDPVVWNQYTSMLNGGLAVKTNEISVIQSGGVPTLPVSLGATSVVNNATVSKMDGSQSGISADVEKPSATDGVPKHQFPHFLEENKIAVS
Technique: universal PBM
Form: double-stranded DNA, one strand shown
Matrix: in vitro
Concentration: 600 nM
Notes: 8-mer, flanks averaged, mean of replicates
Direction: higher = stronger binding
| Strand | E-score |
| --- | --- |
| GCTACACC | -0.17 |
| GCGGCCGC | -0.384 |
| CAAAAGCG | -0.0986 |
| CATCACTA | 0.257 |
| AGTGAACA | 0.0333 |
| CCATCCAC | -0.198 |
| CGGCTTAG | -0.194 |
| GGACTCTA | -0.102 |
| CGCAGGGC | -0.231 |
| ACCGCAGT | -0.0538 |
| CCTTCTGA | 0.0923 |
| CAGTTTAC | 0.0347 |
| CCGATTAG | -0.0936 |
| GGCGGTAA | -0.13 |
| ACTCAACC | 0.0887 |
| GATGCGGC | -0.274 |
| GACCAGCC | -0.248 |
| GCGCTGGA | -0.343 |
| GCCAAGCA | -0.184 |
| GAGTTCGA | 0.00365 |
| TCAGCGAA | -0.121 |
| AACCGCGC | -0.283 |
| ATCCTGTG | 0.0174 |
| AACTCCTG | -0.0877 |
| AGCTTGAT | 0.0689 |

Set 3
Target: CCND3, cyclin fold, Cln2 fusion (human)
Technique: yeast growth competition, sequencing
Matrix: yeast
Notes: weak parent motif
Baseline: not given
Direction: higher = stronger binding
Starting sequence: ORC1 docking peptide (human); PRARKRLELGNLG
| Substitution | normalised enrichment score |
| --- | --- |
| R2L | 0.0906 |
| A3Q | 0.252 |
| L9S | 0.198 |
| L12D | 0.0824 |
| L7M | 0.122 |
| N11S | 0.134 |
| K5E | 0.095 |
| N11R | 0.154 |
| L9G | 0.0483 |
| G10D | 0.138 |
| G13A | 0.0654 |
| P1Q | 0.226 |
| R6G | 0.277 |
| R4Y | 0.114 |
| L12Y | 0.0826 |
| E8L | 0.133 |
| G13F | 0.0654 |
| L7S | 0.141 |
| A3D | 0.0562 |
| A3N | 0.225 |
| N11I | 0.096 |
| L12W | 0.16 |
| R6F | 0.282 |
| L12N | 0.136 |
| R4I | 0.114 |

Set 4
Target: ABI1, truncated, D143A, DHFR fusion (Arabidopsis thaliana)
Technique: DHFR PCA, deep sequencing
Matrix: yeast
Notes: methotrexate growth selection, single substitutions
With: (+)-ABA 0.0091 µM
Baseline: wild-type fitted maximum
Direction: higher = stronger binding
Starting sequence: PYL1, truncated, DHFR fusion (Arabidopsis thaliana); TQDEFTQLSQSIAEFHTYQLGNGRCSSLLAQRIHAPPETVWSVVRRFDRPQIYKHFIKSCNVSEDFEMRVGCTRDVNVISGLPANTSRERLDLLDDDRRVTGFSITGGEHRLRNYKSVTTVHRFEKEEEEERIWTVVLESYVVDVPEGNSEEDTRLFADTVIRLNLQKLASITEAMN
| Substitution | relative binding score [%] |
| --- | --- |
| S63R | 19.5 |
| I12V | 7.07 |
| D65H | 11.2 |
| A35M | -3.4 |
| D144V | 3.3 |
| D95E | -2.53 |
| L138I | 6.08 |
| F56W | 1.55 |
| L20H | 54.7 |
| V62A | 4 |
| K58I | 5.7 |
| S117D | 2.15 |
| Q19D | 52.8 |
| E127H | 50.8 |
| D92L | 2.7 |
| P50Q | -8.49 |

Set 5
Target: MAFG, bZIP domain (human)
Technique: DHFR protein complementation
Matrix: yeast
Notes: single substitutions, most at no-binding floor
Baseline: wild-type JUN-FOS pair
Direction: higher = stronger binding
Starting sequence: JUN, bZIP domain (human); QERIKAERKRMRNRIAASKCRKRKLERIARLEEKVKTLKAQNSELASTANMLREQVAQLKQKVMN; partner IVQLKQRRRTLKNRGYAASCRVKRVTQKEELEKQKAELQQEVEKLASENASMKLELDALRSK
| Substitution | binding fitness [natural log] |
| --- | --- |
| L31A | -1.38 |
| S43M | -1.3 |
| S43V | -1.26 |
| S43G | -1.37 |
| A40C | -1.27 |
| T48V | -1.33 |
| T37K | -1.27 |
| K39L | -1.46 |
| Q55K | -1.58 |
| Q55R | -1.21 |
| K34F | -1.45 |
